Results pooled from the literature.
Numbered parts are unrelated; each lists some results of a single study.
UniProt Q15418, sequence (whole entry, looked up): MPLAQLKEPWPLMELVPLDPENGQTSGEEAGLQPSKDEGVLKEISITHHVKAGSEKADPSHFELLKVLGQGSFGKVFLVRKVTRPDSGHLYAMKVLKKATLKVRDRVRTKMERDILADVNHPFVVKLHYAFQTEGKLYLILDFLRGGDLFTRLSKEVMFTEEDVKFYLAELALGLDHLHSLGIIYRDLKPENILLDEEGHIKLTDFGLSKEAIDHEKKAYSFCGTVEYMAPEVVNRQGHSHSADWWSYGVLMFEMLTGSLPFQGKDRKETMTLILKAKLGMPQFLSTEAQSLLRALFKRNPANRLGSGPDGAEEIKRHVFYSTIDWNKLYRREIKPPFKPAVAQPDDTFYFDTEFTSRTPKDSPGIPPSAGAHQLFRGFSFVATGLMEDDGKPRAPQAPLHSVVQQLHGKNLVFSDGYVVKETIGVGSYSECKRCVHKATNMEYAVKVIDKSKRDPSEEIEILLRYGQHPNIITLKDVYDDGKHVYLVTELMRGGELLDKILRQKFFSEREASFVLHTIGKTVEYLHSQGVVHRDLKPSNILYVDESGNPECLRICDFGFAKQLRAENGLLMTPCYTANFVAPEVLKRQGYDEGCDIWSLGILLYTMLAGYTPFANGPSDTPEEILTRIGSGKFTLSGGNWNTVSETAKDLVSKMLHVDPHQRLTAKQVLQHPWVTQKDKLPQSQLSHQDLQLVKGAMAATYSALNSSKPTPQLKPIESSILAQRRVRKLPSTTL
UniProt P42681, sequence (whole entry, looked up): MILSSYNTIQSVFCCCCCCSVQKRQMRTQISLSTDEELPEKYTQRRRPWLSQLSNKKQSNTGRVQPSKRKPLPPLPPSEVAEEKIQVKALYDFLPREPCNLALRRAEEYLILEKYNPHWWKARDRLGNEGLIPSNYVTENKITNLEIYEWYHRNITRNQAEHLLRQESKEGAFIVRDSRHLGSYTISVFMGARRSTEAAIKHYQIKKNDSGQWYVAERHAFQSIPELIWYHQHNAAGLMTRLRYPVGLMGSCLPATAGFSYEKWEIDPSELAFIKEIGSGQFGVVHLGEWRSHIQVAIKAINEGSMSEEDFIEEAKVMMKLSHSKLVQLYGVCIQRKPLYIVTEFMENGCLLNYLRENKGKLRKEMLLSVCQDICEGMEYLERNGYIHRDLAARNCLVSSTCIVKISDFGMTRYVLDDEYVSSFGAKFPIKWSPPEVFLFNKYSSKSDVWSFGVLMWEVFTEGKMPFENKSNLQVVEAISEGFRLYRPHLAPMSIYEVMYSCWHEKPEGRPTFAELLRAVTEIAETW
UniProt Q16566, sequence (whole entry, looked up): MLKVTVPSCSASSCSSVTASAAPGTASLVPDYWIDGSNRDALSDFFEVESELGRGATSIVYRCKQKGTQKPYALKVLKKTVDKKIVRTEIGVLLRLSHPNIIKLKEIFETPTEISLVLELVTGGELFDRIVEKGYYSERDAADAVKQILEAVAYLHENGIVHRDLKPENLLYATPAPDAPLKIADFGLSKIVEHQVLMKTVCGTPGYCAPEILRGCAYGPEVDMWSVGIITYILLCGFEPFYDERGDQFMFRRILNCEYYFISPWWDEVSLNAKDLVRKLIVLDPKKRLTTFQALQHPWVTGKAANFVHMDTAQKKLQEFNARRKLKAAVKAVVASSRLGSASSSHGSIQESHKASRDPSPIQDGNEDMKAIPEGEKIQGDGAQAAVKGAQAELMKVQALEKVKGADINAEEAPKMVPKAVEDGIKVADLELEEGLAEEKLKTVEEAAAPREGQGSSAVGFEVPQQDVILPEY
UniProt P50750, sequence (whole entry, looked up): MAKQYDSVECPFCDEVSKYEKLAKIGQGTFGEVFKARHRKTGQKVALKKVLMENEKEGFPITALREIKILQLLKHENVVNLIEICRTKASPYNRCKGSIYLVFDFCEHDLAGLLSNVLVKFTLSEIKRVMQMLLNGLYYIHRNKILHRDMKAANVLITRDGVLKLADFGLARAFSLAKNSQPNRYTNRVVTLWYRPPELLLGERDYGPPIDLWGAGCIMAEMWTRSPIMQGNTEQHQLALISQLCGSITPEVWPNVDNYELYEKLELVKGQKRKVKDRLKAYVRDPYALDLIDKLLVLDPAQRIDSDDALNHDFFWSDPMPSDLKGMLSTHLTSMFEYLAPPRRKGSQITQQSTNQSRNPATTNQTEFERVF
UniProt O75676, sequence (whole entry, looked up): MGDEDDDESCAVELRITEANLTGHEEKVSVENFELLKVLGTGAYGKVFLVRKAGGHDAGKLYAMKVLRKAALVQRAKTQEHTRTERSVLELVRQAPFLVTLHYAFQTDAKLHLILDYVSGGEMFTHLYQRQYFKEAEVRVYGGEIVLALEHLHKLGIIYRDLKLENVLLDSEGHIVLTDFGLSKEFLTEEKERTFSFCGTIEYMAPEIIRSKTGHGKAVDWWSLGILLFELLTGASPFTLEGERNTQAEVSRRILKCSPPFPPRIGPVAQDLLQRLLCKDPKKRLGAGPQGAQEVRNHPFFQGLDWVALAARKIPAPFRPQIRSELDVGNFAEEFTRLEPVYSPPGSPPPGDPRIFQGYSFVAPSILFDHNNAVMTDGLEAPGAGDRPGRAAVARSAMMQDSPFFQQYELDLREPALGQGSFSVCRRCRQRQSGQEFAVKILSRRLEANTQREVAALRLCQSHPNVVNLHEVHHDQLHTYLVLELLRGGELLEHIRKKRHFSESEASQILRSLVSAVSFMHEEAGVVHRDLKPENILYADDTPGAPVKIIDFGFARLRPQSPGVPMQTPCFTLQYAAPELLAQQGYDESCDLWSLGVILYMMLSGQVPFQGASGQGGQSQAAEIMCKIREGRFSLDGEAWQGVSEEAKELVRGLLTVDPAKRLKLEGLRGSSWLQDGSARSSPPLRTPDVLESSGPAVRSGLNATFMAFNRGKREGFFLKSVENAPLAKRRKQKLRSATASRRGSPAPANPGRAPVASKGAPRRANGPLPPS
UniProt P35968, sequence (whole entry, looked up): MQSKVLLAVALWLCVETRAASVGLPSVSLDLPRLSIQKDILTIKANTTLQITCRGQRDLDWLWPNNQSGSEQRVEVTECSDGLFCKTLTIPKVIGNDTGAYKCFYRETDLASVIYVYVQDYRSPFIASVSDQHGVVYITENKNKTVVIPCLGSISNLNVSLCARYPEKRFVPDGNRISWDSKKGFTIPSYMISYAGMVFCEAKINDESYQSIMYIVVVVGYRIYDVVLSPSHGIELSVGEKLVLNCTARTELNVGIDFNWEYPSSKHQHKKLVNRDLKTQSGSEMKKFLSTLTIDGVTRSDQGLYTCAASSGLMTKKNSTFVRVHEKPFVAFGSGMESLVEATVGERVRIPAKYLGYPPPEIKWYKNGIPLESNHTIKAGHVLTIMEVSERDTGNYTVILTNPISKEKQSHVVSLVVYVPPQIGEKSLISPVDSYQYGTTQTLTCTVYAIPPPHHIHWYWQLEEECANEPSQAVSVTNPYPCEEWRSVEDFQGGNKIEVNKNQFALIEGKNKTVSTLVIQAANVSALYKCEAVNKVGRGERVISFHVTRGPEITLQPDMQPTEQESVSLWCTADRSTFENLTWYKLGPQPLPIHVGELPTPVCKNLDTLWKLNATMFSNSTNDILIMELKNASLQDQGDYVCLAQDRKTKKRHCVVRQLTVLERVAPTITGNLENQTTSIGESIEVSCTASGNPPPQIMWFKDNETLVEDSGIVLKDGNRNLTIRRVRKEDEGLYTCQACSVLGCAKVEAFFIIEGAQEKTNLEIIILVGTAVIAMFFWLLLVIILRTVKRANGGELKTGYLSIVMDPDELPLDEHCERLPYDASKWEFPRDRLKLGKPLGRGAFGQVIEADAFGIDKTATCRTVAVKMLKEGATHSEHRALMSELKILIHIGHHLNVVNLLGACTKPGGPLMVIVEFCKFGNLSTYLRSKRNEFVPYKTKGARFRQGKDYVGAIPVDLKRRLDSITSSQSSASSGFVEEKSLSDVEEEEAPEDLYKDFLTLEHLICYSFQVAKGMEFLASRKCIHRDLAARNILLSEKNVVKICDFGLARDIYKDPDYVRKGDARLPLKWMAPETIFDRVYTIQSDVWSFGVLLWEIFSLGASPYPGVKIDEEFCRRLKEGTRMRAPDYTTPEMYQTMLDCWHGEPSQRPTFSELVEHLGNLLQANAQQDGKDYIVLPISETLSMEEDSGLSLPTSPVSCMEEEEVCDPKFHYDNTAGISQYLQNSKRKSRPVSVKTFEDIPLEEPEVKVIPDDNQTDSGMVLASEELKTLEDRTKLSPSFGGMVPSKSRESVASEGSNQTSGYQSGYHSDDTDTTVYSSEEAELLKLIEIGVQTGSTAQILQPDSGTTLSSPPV
UniProt Q8N568, sequence (whole entry, looked up): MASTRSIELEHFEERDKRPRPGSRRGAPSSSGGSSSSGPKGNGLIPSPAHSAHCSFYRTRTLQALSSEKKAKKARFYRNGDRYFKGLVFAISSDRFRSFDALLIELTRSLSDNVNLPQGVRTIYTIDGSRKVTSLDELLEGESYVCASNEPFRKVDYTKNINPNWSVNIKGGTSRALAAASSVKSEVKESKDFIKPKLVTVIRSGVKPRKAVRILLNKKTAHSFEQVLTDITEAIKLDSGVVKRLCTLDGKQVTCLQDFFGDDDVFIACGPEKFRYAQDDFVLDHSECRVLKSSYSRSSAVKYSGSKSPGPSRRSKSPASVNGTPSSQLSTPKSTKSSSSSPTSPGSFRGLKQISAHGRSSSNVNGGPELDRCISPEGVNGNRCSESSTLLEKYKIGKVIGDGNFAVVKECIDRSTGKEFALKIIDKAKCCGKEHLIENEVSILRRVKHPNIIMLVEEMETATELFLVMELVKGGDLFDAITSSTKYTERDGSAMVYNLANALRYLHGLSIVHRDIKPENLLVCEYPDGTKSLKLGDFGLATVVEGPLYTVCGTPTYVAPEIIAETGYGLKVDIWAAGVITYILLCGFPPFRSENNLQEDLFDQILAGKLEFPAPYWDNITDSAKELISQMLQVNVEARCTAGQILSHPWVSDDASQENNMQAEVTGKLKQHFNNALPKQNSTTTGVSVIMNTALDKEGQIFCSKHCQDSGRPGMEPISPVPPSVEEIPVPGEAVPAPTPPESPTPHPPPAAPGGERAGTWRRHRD

Set 1 — organism: Plasmodium berghei; action: inhibitor; cell line: Huh-7; strain: GFP-expressing sporozoites, liver stage; tested at: 10 µM; time: 24 h; relative to: untreated control
| Compound | infection rate [%] |
| --- | --- |
| CCC(=O)OCC(=O)[C@@]1(OC(=O)CC)[C@H](C)C[C@H]2[C@H]3[C@H]([C@@H](O)C[C@@]21C)[C@@]1(C)C=CC(=O)C=C1C[C@H]3Cl | 92.5 |
| CCN1CCN(C(=O)N[C@@H](C(=O)N[C@@H]2C(=O)N3C(C(=O)O)=C(CSc4nnnn4C)CS[C@H]23)c2ccc(O)cc2)C(=O)C1=O | 96.8 |
| C[C@H]1c2cccc(O)c2C(=O)C2=C(O)[C@]3(O)C(=O)C(C(N)=O)=C(O)[C@@H](N(C)C)[C@@H]3[C@@H](O)[C@@H]21 | 20 |
| CN[C@@H]1[C@H](O[C@H]2[C@H](O[C@H]3[C@H](O)[C@@H](O)[C@H](N=C(N)N)[C@@H](O)[C@@H]3N=C(N)N)O[C@@H](C)[C@]2(O)CO)O[C@@H](CO)[C@H](O)[C@H]1O | 93.9 |
| CN[C@@H]1[C@@H](O[C@H]2O[C@H](CO)[C@@H](N)[C@H](O)[C@H]2O)O[C@H]2C[C@@H](N)[C@@H](O[C@H]3[C@H](O)[C@@H](O)[C@H](N)C[C@@H]3N)O[C@@H]2[C@@H]1O | 88.5 |
| COc1cc(NS(C)(=O)=O)ccc1Nc1c2ccccc2nc2ccccc12 | 94.4 |

Set 2 — sample: plasma; route: oral
SMILES: COc1ccc(-c2c(Nc3ccccn3)[nH]c3c(C4=CCCCC4)c(-c4ccccc4)nn3c2=O)cc1
| method | species | dose | time | notes | plasma concentration, mean |
| --- | --- | --- | --- | --- | --- |
| – | human patients | 200 mg once daily | 0.5 h | cycle 1 | 6670 ng/mL |
| LC-MS/MS | human | 50 mg once daily | 8 h | cycle 1 | 1590 ng/mL |
| – | cancer patients | 100 mg | 6 h post-dose | single dose | 985 ng/mL |
| LC-MS/MS | human | 200 mg twice daily | 3 h | single dose | 1580 ng/mL |
| – | human patients | 400 mg once daily | 3 h | cycle 1 | 4340 ng/mL |
| – | human patients | 100 mg once daily | 4 h | cycle 1 | 3860 ng/mL |
| – | cancer patients | 50 mg | 4 h post-dose | single dose | 478 ng/mL |
| – | human patients | 400 mg once daily | 24 h | cycle 1 | 3520 ng/mL |
| – | human patients | 100 mg once daily | 3 h | cycle 1 | 4270 ng/mL |

Set 3 — effect on: cell-free assay; method: competition with immobilised ligand; tested at: 1 µM
SMILES: CCC(=O)N[C@@H]1CC[C@H](C(=O)N(C)c2ccc(-c3nc4ccccc4o3)cc2)C1
| target | remaining binding [%] |
| --- | --- |
| SGK2 (Homo sapiens, UniProt Q9HBY8) | 100 |
| MAP3K4 (Homo sapiens, UniProt Q9Y6R4) | 83 |
| NUAK2 (Homo sapiens, UniProt Q9H093) | 100 |
| PLK3 (Homo sapiens, UniProt Q9H4B4) | 84 |
| FLT3 (Homo sapiens, UniProt P36888) | 89 |
| Ribosomal protein S6 kinase alpha-1, C-terminal kinase domain (RPS6KA1, Homo sapiens, UniProt Q15418) | 100 |
| DYRK2 (Homo sapiens, UniProt Q92630) | 100 |

Set 4 — effect on: enzyme activity; action: inhibitor; tested at: 0.5 µM; relative to: control
SMILES: Nc1nc(Nc2ccc(S(N)(=O)=O)cc2)nn1C(=S)Nc1c(F)cccc1F
| target | remaining activity [%] |
| --- | --- |
| PNCK (Homo sapiens, UniProt Q6P2M8) | 89.1 |
| MINK1 (Homo sapiens, UniProt Q8N4C8) | 3.06 |
| NEK3 (Homo sapiens, UniProt P51956) | 19.6 |
| KDR (Homo sapiens, UniProt P35968) | 6.55 |
| AKT2 (Homo sapiens, UniProt P31751) | 103 |
| DDR2 (Homo sapiens, UniProt Q16832) | 130 |
| Cyclin-dependent kinase 9, with cyclin K (CDK9, Homo sapiens, UniProt P50750) | 7.46 |
| PAK3 (Homo sapiens, UniProt O75914) | 35.4 |
| DCLK2 (Homo sapiens, UniProt Q8N568) | 40.4 |
| CAMK4 (Homo sapiens, UniProt Q16566) | 98.8 |
| RPS6KA4 (Homo sapiens, UniProt O75676) | 42.8 |
| GRK4 (Homo sapiens, UniProt P32298) | 92.2 |
| TXK (Homo sapiens, UniProt P42681) | 85.8 |

Some of these lines once more (set 4):
| target | remaining activity [%] |
| --- | --- |
| DCLK2 (Homo sapiens, UniProt Q8N568) | 40.4 |
| NEK3 (Homo sapiens, UniProt P51956) | 19.6 |
| TXK (Homo sapiens, UniProt P42681) | 85.8 |
